Results gathered from unrelated publications.
Numbered parts are unrelated; each lists some results of a single study.
UniProt P10721, sequence (whole entry, unmodified, looked up): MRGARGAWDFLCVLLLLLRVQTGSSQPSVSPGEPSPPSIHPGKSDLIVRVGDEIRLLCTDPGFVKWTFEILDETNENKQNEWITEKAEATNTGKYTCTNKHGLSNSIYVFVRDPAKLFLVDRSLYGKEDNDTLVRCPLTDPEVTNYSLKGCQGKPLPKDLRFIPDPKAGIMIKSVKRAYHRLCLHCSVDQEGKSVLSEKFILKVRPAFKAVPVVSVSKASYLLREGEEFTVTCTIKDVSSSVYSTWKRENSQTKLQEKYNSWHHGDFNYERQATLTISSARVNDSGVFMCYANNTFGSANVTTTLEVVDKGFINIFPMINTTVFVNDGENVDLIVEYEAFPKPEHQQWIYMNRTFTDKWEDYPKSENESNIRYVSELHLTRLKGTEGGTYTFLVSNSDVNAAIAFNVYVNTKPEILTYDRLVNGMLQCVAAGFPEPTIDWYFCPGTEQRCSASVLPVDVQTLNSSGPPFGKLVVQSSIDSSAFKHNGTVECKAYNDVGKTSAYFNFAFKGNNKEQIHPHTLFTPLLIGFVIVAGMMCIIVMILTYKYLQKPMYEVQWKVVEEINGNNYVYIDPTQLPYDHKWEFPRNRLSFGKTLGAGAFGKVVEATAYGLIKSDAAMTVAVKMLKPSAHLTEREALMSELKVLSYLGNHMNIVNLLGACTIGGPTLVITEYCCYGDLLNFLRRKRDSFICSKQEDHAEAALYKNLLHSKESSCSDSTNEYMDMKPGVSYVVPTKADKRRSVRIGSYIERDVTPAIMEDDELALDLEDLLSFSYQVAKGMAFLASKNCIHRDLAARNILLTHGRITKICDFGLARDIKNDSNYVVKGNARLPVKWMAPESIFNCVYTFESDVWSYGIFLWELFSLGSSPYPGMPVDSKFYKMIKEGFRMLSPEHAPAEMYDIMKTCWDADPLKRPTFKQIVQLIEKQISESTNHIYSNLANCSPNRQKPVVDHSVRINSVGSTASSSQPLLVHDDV
UniProt P42681, sequence (whole entry, looked up): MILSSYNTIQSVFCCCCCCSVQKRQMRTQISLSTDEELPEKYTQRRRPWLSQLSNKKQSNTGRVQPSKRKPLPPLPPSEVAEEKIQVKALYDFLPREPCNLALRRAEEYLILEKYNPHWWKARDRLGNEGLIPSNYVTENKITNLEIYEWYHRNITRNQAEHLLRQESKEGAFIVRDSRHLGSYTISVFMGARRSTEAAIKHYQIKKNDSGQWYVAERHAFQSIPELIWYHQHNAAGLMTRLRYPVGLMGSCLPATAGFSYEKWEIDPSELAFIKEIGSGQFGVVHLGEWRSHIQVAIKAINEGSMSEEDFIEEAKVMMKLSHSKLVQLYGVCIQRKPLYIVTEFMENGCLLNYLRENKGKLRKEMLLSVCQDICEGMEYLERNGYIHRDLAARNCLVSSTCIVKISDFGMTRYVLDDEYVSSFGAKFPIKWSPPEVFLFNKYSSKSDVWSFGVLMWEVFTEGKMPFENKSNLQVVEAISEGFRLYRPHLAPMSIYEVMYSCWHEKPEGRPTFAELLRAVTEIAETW
UniProt Q8WTQ7, sequence (whole entry, looked up): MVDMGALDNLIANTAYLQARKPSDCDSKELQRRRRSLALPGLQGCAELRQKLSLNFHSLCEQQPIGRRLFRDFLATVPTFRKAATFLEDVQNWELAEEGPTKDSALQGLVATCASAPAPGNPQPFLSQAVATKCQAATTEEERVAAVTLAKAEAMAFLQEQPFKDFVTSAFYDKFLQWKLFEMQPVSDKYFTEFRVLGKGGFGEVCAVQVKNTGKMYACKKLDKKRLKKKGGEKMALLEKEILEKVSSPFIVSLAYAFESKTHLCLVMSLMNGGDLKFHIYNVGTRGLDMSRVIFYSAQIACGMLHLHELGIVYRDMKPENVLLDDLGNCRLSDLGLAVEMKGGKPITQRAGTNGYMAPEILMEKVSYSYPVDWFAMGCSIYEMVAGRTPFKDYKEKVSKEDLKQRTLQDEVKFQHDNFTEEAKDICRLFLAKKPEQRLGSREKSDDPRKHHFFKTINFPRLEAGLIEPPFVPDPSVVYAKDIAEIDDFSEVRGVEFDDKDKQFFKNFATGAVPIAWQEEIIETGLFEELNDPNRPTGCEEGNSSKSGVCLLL
UniProt P0C264, sequence (whole entry, looked up): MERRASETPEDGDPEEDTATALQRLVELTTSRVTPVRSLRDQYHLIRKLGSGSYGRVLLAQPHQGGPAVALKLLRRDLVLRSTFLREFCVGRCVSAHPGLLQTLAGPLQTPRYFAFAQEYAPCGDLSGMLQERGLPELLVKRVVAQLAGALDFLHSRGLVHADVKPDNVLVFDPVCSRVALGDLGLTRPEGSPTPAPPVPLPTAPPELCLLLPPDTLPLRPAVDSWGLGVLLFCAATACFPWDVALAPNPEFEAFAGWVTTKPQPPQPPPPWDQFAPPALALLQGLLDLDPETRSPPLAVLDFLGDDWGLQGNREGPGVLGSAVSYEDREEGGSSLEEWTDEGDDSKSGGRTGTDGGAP
UniProt Q13233, sequence (whole entry, looked up): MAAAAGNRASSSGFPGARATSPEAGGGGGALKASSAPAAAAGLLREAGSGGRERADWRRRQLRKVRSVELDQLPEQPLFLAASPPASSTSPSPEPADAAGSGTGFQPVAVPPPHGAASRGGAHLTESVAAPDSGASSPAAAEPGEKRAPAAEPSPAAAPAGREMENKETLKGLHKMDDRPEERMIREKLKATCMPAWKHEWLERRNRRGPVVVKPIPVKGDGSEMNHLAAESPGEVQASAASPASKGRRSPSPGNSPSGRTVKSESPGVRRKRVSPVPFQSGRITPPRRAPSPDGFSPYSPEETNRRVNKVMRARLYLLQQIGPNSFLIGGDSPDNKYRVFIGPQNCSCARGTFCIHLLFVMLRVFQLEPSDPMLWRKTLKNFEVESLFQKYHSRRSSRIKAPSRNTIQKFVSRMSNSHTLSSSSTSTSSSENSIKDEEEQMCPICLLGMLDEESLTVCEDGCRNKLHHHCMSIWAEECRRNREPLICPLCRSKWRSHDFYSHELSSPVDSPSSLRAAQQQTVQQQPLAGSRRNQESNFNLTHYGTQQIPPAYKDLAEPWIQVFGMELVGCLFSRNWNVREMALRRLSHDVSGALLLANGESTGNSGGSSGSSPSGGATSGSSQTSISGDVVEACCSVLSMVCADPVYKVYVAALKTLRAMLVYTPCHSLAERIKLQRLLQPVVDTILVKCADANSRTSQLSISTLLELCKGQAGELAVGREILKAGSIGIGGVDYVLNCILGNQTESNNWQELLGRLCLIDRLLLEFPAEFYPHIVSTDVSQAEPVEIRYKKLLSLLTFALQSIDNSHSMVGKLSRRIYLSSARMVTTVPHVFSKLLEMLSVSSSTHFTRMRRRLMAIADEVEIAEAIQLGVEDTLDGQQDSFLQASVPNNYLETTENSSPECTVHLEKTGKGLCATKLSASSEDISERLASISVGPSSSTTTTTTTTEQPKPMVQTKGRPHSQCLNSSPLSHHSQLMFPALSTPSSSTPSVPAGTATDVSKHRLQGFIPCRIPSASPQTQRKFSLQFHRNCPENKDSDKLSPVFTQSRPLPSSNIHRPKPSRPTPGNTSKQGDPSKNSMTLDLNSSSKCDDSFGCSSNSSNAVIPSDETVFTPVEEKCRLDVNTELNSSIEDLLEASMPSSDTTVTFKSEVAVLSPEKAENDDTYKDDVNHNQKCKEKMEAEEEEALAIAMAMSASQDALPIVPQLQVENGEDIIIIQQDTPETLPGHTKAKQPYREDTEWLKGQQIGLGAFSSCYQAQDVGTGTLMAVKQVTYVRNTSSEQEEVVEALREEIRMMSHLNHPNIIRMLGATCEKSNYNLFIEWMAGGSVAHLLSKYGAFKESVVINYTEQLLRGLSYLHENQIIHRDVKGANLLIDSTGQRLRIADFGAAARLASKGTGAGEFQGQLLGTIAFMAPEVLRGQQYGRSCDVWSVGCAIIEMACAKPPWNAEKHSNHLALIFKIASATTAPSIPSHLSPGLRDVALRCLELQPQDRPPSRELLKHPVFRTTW
UniProt P0C1S8, sequence (whole entry, looked up): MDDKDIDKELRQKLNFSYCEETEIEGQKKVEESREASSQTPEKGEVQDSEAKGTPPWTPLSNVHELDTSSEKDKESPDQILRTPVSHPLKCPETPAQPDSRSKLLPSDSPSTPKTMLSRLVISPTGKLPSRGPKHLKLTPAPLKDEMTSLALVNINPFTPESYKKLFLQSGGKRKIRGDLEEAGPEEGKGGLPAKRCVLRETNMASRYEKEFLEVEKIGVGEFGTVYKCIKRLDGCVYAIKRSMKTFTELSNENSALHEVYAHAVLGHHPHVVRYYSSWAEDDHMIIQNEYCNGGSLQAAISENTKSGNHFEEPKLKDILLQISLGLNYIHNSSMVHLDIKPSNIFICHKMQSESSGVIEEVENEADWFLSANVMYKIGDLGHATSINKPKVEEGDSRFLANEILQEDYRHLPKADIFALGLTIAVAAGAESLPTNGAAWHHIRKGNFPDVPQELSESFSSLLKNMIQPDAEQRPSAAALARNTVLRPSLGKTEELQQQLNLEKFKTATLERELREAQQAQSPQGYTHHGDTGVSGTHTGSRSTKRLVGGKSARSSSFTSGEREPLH

Sample 1
Target: Calcium/calmodulin-dependent protein kinase type 1 (CAMK1, Homo sapiens, UniProt Q14012)
UniProt Q14012, sequence (whole entry, looked up): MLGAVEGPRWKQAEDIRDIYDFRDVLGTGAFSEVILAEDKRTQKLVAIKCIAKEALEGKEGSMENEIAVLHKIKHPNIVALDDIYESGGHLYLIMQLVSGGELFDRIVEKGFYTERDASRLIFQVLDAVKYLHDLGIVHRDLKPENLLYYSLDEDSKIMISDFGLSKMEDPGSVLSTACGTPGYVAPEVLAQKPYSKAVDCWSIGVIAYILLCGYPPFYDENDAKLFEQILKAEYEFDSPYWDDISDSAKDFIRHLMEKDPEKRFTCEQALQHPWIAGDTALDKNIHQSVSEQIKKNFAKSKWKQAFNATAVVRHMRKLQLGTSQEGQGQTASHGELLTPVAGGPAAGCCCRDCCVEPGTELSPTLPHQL
Effect on: enzyme activity
Mode: inhibitor
Tested at: 0.5 µM
Baseline: control
Structure (SMILES) | remaining activity
c1ccc(-c2cnc(Nc3ccc(OCCN4CCCC4)cc3)s2)cc1 | 86.3%
CCN(CC)CCNC(=O)c1c(C)[nH]c(/C=C2\C(=O)Nc3ccc(F)cc32)c1C | 75.2%
C[C@@H]1CCN(C(=O)CC#N)C[C@@H]1N(C)c1ncnc2[nH]ccc12 | 99.3%
COc1cc2c(cc1OC)-c1[nH]nc(Nc3cccc(F)c3)c1C2 | 98.4%
COc1cc2ncnc(Nc3ccc(O)c(Br)c3)c2cc1OC | 103%
O=C(Nc1cccc(Nc2nccc(Nc3cccc(C(F)(F)F)c3)n2)c1)C1CC1 | 95.5%
CCOc1nc(NC(=O)Cc2cc(OC)ccc2OC)cc(N)c1C#N | 103%
N#Cc1c(NC(=O)c2cccc3ccccc23)sc2c1CCCC2 | 108%
COc1cc2ncnc(Nc3cccc(Cl)c3)c2cc1OC | 99.2%
CCN(CC)CCNC(=O)c1c(C)[nH]c(/C=C2\C(=O)Nc3ccc(Cl)cc32)c1C | 75.9%
c1ccc(-c2[nH]ncc2-c2ccnc3ccccc23)nc1 | 96.1%
O=c1cc(-c2cccc3c2Sc2ccccc2S3)oc(N2CCOCC2)c1 | 94.2%
Cn1nc2c3c(cccc31)C(=O)c1ccccc1-2 | 104%
Cc1cn(-c2cc(NC(=O)c3ccc(C)c(Nc4nccc(-c5cccnc5)n4)c3)cc(C(F)(F)F)c2)cn1 | 104%
Ic1cccc(CSc2nnc(-c3ccncc3)o2)c1 | 102%
Nc1cccc(-c2cc3c(Oc4cccc(O)c4)ncnc3[nH]2)c1 | 112%
O=C(NC(NC(=S)Nc1ccc(F)c([N+](=O)[O-])c1)C(Cl)(Cl)Cl)C(c1ccccc1)c1ccccc1 (stereo not shown) | 93.1%
O=C1c2ccccc2-c2n[nH]c3cccc1c23 | 96.8%
N#C/C(=C\c1ccc(O)c(O)c1)C(=O)NCc1ccccc1 | 93%
O=C1C(Cl)=C(N2C(=O)CCC2=O)C(=O)c2ccccc21 | 98.3%
CN([C@@H](Cc1ccc(OS(=O)(=O)c2cccc3cnccc23)cc1)C(=O)N1CCN(c2ccccc2)CC1)S(=O)(=O)c1cccc2cnccc12 | 105%
Cc1cc2ncc(-c3ccccc3)nc2cc1C | 96.2%
Cc1nc2cc3nc(-c4cccs4)cnc3cc2n1C | 98.1%
CCN(CC)C(=O)c1ccc(Nc2nc(OCC3CCCCC3)c3[nH]cnc3n2)cc1 | 85.6%

Sample 2
Compound: O=C(O)[C@H]1[C@H](Cn2nnc3ccccc3c2=O)CC[C@@H]1C(=O)c1ccc(OCCC2CCOCC2)cc1
Method: competition with immobilised ligand
Tested at: 1 µM
target | assay | remaining binding [%]
MAST1 (Homo sapiens, UniProt Q9Y2H9) | cell-free assay | 98
PRKACB (Homo sapiens, UniProt P22694) | cell-free assay | 95
MAP3K1 (Homo sapiens, UniProt Q13233) | cell-free assay | 100
KIT (Homo sapiens, UniProt P10721, T670I/V559D) | cell-free assay | 69
CDK16 (Homo sapiens, UniProt Q00536) | cell-free assay | 98
EGFR (Homo sapiens, UniProt P00533, G719S) | cell-free assay | 87
GRK7 (Homo sapiens, UniProt Q8WTQ7) | cell-free assay | 100
PRKACA (Homo sapiens, UniProt P17612) | cell-free assay | 97
ERBB2 (Homo sapiens, UniProt P04626) | cell-free assay | 100
FGR (Homo sapiens, UniProt P09769) | cell-free assay | 86
SBK3 (Homo sapiens, UniProt P0C264) | cell-free assay | 100
DAPK2 (Homo sapiens, UniProt Q9UIK4) | cell-free assay | 100
PIM1 (Homo sapiens, UniProt P11309) | cell-free assay | 95
MAP4K5 (Homo sapiens, UniProt Q9Y4K4) | cell-free assay | 92
WEE2 (Homo sapiens, UniProt P0C1S8) | cell-free assay | 100
PIK3CA (Homo sapiens, UniProt P42336, E545A) | cell-free assay | 100
PAK3 (Homo sapiens, UniProt O75914) | cell-free assay | 86
TXK (Homo sapiens, UniProt P42681) | binding | 100
Mast/stem cell growth factor receptor Kit, autoinhibited (KIT, Homo sapiens, UniProt P10721) | cell-free assay | 95

Sample 3
Species: human
Medium: microsomes or S9
Tested at: 2 µM
Time: 0.5 h
SMILES | remaining compound [%]
COc1ccc(-c2noc(Cn3cnc4c(cnn4-c4ccc(Cl)cc4)c3=O)n2)cc1 | 33.4
CCNC(=O)N1c2ccc(CC)cc2C(C)=CC1(C)C | 0.417
COCCCNC(=O)NCCc1c(C)nn(C)c1C | > 99
O=C(Nc1cc2ccc(O)cc2s1)Nc1ccc(Br)cc1F | 69.5
CC(C)c1noc(CCCn2ccc(-c3ccc(C#N)cc3)n2)n1 | 34.6
COc1ccc(-c2cc3cc(C)cc(C)c3o2)cc1OC | > 99
[O-][S+]1CCN(c2ncnc3sccc23)CC1 | > 100
CC1(C)C=C(N(Cc2ncc[nH]2)c2ccc(Cl)c(Cl)c2)c2ccnc(Br)c2O1 | 3.6
O=c1[nH]c(O)ncc1S(=O)(=O)Nc1cccc2ccccc12 | 97.5
Cc1c(C)n2c3c(=O)[nH]c(=O)n(C)c3nc2n1Cc1ccco1 | 89.5
c1ccc(Cn2ncc3/c(=N/c4cccc5ccccc45)nc[nH]c32)cc1 | 78.7
CCOC(=O)c1cc(C(=O)OCC)n(CCCC#N)c1 | 34.3
CC(C)c1nc2c(c(OC3CCCN(S(=O)(=O)c4cccs4)C3)n1)CCOCC2 (stereo not shown) | 0.0269
CC1CC(=O)N(c2cccc(Cl)c2)N=C1c1ccc(O)cc1 (stereo not shown) | 70.8

Single results of other studies
Structure (SMILES) | test system | measurement | value
CCC[C@H]1NC(=O)CSC[C@@H](C(=O)OCC)N(C)C(=O)[C@H](CC(C)C)NC(=O)[C@H](C)N(C)C(=O)[C@H](CC(C)C)NC(=O)[C@H](C)N(C)C(=O)[C@H]2CCCN2C(=O)[C@H](CC(C)C)NC(=O)CN(C)C1=O | hydrocarbon/water | logD | 0.647

For quick reference, copied from above (sample 3):
SMILES | remaining compound [%]
COc1ccc(-c2cc3cc(C)cc(C)c3o2)cc1OC | > 99
[O-][S+]1CCN(c2ncnc3sccc23)CC1 | > 100
CC1(C)C=C(N(Cc2ncc[nH]2)c2ccc(Cl)c(Cl)c2)c2ccnc(Br)c2O1 | 3.6
O=c1[nH]c(O)ncc1S(=O)(=O)Nc1cccc2ccccc12 | 97.5
Cc1c(C)n2c3c(=O)[nH]c(=O)n(C)c3nc2n1Cc1ccco1 | 89.5
c1ccc(Cn2ncc3/c(=N/c4cccc5ccccc45)nc[nH]c32)cc1 | 78.7
CCOC(=O)c1cc(C(=O)OCC)n(CCCC#N)c1 | 34.3
CC(C)c1nc2c(c(OC3CCCN(S(=O)(=O)c4cccs4)C3)n1)CCOCC2 (stereo not shown) | 0.0269
